Published values pooled from the literature.
Numbered parts are unrelated; each lists some results of a single study.

Block 1 — method: RNA Bind-n-Seq; form: RNA; medium: in vitro; concentration: 365 nM; reference: no-protein control; reading: higher = stronger binding
Target: RNA binding protein fox-1 homolog 2, RRM domain, GST-SBP tag (RBFOX2, Homo sapiens, UniProt O43251-10, residues 100-194)
Setting: natural RNA segment, single round, ends assumed
Construct (chain): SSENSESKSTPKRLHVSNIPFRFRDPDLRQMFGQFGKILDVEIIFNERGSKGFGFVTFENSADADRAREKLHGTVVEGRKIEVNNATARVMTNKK
Strand | RBNS enrichment (R)
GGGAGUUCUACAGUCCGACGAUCAUAGGAGUUUGACAAAAUGAAUUGUGGUUAUAAAACGAAUUUGCUUUUUUGUUGUUUUGUUUUUCUUUUUUGGCCUAAGGAAGAAAGCUGUGAUAAAUUUCAAAUUUGCAUGGAAUUCUCGGGUGCCAA | 1.37
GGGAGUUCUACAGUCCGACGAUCGAGAGUGAAAAGGUAUUAAGGAAAAAGCCCCCAGCGGCACUAUGGGGGCUCCCUGGCGCAUGCCUGCUCCUGUCCCUGGAUUACCACACGUGCCCUCCCUGCCACCCUCCUGGAAUUCUCGGGUGCCAA | 0.782
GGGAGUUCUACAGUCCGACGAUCCACGCCCCAGCCACUUUGCUCCCUCUCACCUCUGGGAAGUGCAAAUACUCUUGGUUGACAUCCCCUUCCUCAGCCCUCCCAGCCUACUCCCCAUCCCAGCUUUUAGAGGAUGGAAUUCUCGGGUGCCAA | 0.564
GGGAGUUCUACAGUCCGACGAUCGAAGUAAAUUCUGGCACAAAGCGUAAAAAUAUAACAGAAGAAAUAAUGUAAAAUACUAUCUUUUAUGUCUAAAGCCAUUUUAUAUUACUUUUCAAUAAAAAGAAUAUCAUUGGAAUUCUCGGGUGCCAA | 0.601
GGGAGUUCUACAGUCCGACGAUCCCUCCUUCCCUUGCUCCUCCUCUGGAGAAGCACUAAUUACACAGGGGAUAGCAAAGUAGCACUUUACAAAUGGCCAUGGCGUUCAUCCCAAGAGCCACCAGCUCUUCUUAUGGAAUUCUCGGGUGCCAA | 0.16
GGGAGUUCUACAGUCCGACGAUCCUAUGGGUCAUAGUGACUCUGGAGAGGUCCUGGCAGCCCUGAGGAUGUGGAAACCACUAGGGGGCUCCAGAUUGGGUCUUCCUCCGCAGAACUUUAGGACUGGGGAGUGGUGGAAUUCUCGGGUGCCAA | 0.192
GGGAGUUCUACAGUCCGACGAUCCAGGGAGGCCACGUCCCACCCCACCUCUUGUUUCUGGGUCCCUGCUCCCCUUUGGGGGUGUGUGUGUGUGUUUUAAUUUUCUUUAUGGAAAAAUUGACAAAAAAAAAAUAUGGAAUUCUCGGGUGCCAA | 0.55
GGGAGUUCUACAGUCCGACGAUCGCUGAGAGGAAGCAAGACGUAAAGAAUUUUCAUCCCGUAUCACAGUGUUUUUAUUGCUCGCCCAGACACCAUGUGCAAUAAGAUUGGUGUUCGUUUCCAUCAUGUCUGUAUGGAAUUCUCGGGUGCCAA | 8.05
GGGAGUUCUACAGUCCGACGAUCUAAUCUUGUGGCUGCUUUCUUUUUAUUUCCCACUUUCUCUGUUUUAUAACAGAACCUUCUGUAUAGGUUCUGGCAAUCAAGAGAUGUAUAAUAAAACAUAGCUUACGUGAUGGAAUUCUCGGGUGCCAA | 0.457
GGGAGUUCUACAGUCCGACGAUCAGUAUAUAGAUAUAUAAAGUACUGUAGUUUACAGCUAGGCCUUGAGAUAUCUUUUUAGGAUCUGUUAGGAAUAAGAUUGAUAUUGUAUUGUGUGUAACCUGCACAAUGUGUGGAAUUCUCGGGUGCCAA | 0.449
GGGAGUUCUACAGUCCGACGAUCAGGGUGAACAGCAUGGCGGCAUCUGGGCCCCACAGUAACACCUAGUGGCAACCUUGCCUUCCUGACCUCAGCGGCCCUUCUGUUCCAUCCUCUGUGGGCAGGGGUGUGGCUGGAAUUCUCGGGUGCCAA | 1.83
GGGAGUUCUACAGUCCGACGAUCAAUUGUACUUUUUCUUCCCAUGUGAGCAUUGUGGGAAGGAAUGGACACAGAGCAGCGUAGACAUUUGUGAGCUUCGGUGCUGUUCAGUGCCUGCUUCUUCAUCACCUUAAUGGAAUUCUCGGGUGCCAA | 0.979

Block 2 — method: protein binding microarray; form: double-stranded DNA, one strand shown; medium: in vitro; concentration: not given; reference: not given; reading: higher = stronger binding
Target: Histone acetyltransferase KAT6A, both winged helices, GST fusion (KAT6A, Homo sapiens, UniProt Q92794, residues 1-181)
Setting: 8-mer, flanks averaged, mean of 2 arrays, mostly near background
Target sequence (chain): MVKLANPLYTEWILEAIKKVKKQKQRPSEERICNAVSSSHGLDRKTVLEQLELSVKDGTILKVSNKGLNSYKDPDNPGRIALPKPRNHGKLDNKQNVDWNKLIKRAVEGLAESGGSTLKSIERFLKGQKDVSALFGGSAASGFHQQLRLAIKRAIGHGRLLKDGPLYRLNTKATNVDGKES
Strand | E-score
AGCCAGAT | -0.263
CCAACTGG | -0.23
CCAGTCAC | 0.0354
ACAGTCGA | -0.116
CGGTACAC | 0.172
GAGCGTGA | 0.204
ATTTCGGC | 0.122
ACCTAGTA | -0.0943
ACCTGCGG | 0.162
AAGCAGAA | -0.123
GAAAACTC | -0.0396
AGACTTGG | -0.203
CAGTAAAC | 0.0632
GATGGATA | -0.0583
AAATTTCG | -0.0685
CCGACAAG | 0.0783
CAAGCTAG | -0.246
TCAGTGAA | -0.125
CTATATAC | -0.0609
AATATCCG | 0.154
AGACCTGA | -0.182
ACGATCGC | 0.241
CAATCCTG | -0.157

Block 3 — method: RNA Bind-n-Seq; form: RNA; medium: in vitro; concentration: not given; reference: input RNA pool; reading: higher = stronger binding
Target: RING finger protein unkempt homolog, zinc fingers 1-6, GST-SBP tag (UNK, Homo sapiens, UniProt Q9C0B0, residues 30-357)
Chain of UniProt Q9C0B0 (30-357, looked up): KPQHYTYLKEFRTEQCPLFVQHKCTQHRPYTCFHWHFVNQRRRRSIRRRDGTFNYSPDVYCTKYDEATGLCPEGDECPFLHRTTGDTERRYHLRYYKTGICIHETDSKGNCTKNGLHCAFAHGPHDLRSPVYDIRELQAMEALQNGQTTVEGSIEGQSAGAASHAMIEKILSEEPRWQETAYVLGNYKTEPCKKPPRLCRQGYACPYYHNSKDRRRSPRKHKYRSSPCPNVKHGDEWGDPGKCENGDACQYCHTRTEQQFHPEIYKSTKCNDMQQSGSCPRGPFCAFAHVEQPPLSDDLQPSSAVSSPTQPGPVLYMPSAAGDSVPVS
Setting: RNA with constant flanks, human-mouse chimeric sites, ends assumed
Strand | bound/input enrichment [ratio]
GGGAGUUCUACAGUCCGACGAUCGAAUCCUACUCAGGCGGAUUUUGCAACACCAAGCUCACAGCAGCAGCAUCUUAGUCACAGUAGGGUAGUUUUGGGGCUCUGUGGCCAUGGUUUUACUCACAUGCAGGUUUGGAAAAUGUACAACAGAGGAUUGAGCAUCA | 1.03
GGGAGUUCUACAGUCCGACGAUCAAUUUCCGCAACUGUUUUUUAGACAUUCACAUCAGACUUACAGAGCACCUGGCCACAUUCUAGGUUUGUGUUAUUUCUAAGCCUUUUAUAUGAUCAAAUGAGAACACUGCUUAACUAAUGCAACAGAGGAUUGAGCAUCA | 0.45
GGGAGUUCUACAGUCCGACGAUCGAUAAGAAAAGCUUGUUGGAGACCCGAUUGCAUGUCACUGGUAGAGAACUGAGGUCCCAAAUAGCUGAAACUUUCGGAUUUCAAGAAAAUUACAUCAAGAUCGUAAUAAAUAAGAAACAGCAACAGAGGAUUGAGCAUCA | 0.46
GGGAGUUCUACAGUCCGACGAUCCCCUCCCGGGCCACCCAACCCCUCCCGGCUCCCCGCCGAGAUCCAGGUUUCUUCUGUUUUCAUAGCAAAUAAGAAAAAUGUUCUACGCACAUUUUGUCCUCAGUAAACGAGGGCCUCUGGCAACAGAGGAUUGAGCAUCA | 0.713
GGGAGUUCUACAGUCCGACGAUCAACAGAUUUCUCAAGCACAUUCCAAGCGAGAAUGCUGGGGUGAUCAUUGUUGCCCAUGUGCCUUCUGACUGAGCUUUAAUGCUGUUCAUCCUUGAUGCUUUCCUUCACUCCAGAAUUGUUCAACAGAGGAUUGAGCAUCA | 0.13
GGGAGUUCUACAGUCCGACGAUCGAUAAGAAAAGCUUGUUGGAGACCCGAUUGCAUGUCACUGGUAGAGACCUGAGGUGUCAAAUAGCUGAAACUUUCGGACUUCAAGAAAAUUACAUCAAGAUCGUAAUAAAUAAGAAACAGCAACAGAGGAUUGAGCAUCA | 0.247
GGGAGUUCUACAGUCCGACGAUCAGAUUCCCCCUCCUGAGACCUCCUCCGAAAUUGGCAUCUCUUACAGAUGCCUCAUCCCCUGUUAGCGUUUUAGUUUGGACCACCCAGCCUUGGACAAUUCCCGCCAAUGAAGCUGUUUGCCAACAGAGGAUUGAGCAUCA | 1.83
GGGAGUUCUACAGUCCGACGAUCCCAAUUGUGGAGCAGUACUUGAAGACAAAGAAAAAUUCUAAUAAUUUAAUCAUCAAGUACAUUAGCUGCCGCCUGCUGACACUCAUCGUUAUACUGUUAGCGUGUAUCUACCUGGGCUAUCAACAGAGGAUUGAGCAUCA | 0.437
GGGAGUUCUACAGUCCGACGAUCCAGCCUCAGAGCCCAGACUUCCUGGAUAUUACCAACCCUAAAGCGGUAUUAGAAAACGCAUUGAGAAACUUCGCCUGUCUGACGACUGGAGAUGUGAUUGCUAUCAACUACAAUGAGAAGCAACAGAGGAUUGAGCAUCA | 0.357
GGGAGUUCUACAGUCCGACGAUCAUAAAGGCCAUGUUGAGUGGUCCAGGUCAGUUUGCUGAGAAUGAAACCAACGAGGUCAAUUUUAGAGAGAUCCCCUCACAUGUGCUAUCGAAAGUAUGCAUGUAUUUUACCUACAAGGUCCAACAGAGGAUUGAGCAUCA | 0.177
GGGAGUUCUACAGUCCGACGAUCCUGGCCUGGCCCUCCCCAGGGGCCUCCUUUCGUAUAGUAACUGUCAGUGCAUCAGAUACUUUCAGCUGCAACUCCCUACUGGGUGGGGCACCCAUUUGAGGCAGGGUGUUUUGGUACCCUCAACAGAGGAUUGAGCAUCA | 0.465

Block 4 — method: universal PBM; form: double-stranded DNA, one strand shown; medium: in vitro; concentration: not given; reading: higher = stronger binding
Target: Sal-like protein 4, full length isoform B (SALL4, Homo sapiens, UniProt Q9UJQ4-2, residues 1-616)
Setting: 8-mer, flanks averaged, mean of replicates
Strand | E-score
CGTAGCGC | -0.205
AAGAAGTG | 0.0128
CGTACGTC | -0.034
ACCGCGCA | -0.16
ACCACATG | 0.15
GAGTCACA | -0.128
GAACGGGC | -0.232
GAGGGGAC | -0.335
GTATGCTA | 0.176
ATCGTCAA | 0.157
ATACTACG | 0.0739
CCGTTAGG | -0.158
CTCGGAAC | -0.182
CTATTTAA | 0.214
CCTTCGTC | -0.148
GGGTACAA | -0.0251
CCGTGTCC | -0.285
CGCCACAC | -0.133
GCAGAGGC | -0.159
GGACGACA | -0.0431
